Published values of several laboratories.
Numbered parts are unrelated; each lists some results of a single study. Substitutions count along the parent as printed.

Study 1
Target: ABI1, truncated, D143A, DHFR fusion (Arabidopsis thaliana)
Technique: DHFR PCA, deep sequencing
Sample: yeast
Notes: methotrexate growth selection, single substitutions
With: (+)-ABA 1.4 µM
Relative to: wild-type fitted maximum
Direction: higher = stronger binding
Starting sequence: PYL1, truncated, DHFR fusion (Arabidopsis thaliana); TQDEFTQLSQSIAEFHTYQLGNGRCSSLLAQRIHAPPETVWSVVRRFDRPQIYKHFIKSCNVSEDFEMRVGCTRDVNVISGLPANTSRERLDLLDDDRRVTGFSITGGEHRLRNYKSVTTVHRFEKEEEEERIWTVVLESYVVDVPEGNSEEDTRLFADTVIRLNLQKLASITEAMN; partner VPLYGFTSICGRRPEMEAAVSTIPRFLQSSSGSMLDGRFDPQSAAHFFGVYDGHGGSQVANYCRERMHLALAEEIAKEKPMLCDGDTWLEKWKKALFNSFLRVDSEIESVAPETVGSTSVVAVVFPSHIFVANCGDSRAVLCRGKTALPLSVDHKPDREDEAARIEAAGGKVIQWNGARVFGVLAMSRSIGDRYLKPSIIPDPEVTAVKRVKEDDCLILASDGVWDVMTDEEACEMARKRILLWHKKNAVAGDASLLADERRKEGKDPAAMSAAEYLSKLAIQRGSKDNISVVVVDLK
| Variant | relative binding score [%] |
| --- | --- |
| L166V | 10.9 |
| L91N | -1.4 |
| R155V | 35.2 |
| G108E | -8.71 |
| G107C | 11.4 |
| I33P | 7.08 |
| C60A | 4.32 |
| R99M | 95.2 |

Study 2
Target: RING finger protein unkempt homolog, zinc fingers 1-6, GST-SBP tag (UNK, Homo sapiens, UniProt Q9C0B0, residues 30-357)
UniProt Q9C0B0, sequence (30-357, looked up): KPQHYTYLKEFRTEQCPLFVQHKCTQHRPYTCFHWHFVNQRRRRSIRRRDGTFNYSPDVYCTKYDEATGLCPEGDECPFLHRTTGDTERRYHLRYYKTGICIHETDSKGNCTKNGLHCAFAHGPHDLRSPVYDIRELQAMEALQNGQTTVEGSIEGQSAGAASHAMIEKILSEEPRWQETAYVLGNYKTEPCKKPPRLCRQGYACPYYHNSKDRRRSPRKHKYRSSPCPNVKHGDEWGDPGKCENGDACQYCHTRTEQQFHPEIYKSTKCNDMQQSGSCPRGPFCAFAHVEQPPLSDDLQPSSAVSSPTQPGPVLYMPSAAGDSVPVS
Technique: RNA Bind-n-Seq
Form: RNA
Sample: in vitro
Tested at: not given
Notes: RNA with constant flanks, human and mouse sites, ends assumed
Relative to: input RNA pool
Direction: higher = stronger binding
Constant ends, left off below: GGGAGUUCUACAGUCCGACGAUC … CAACAGAGGAUUGAGCAUCA
| Oligonucleotide | bound/input enrichment [ratio] |
| --- | --- |
| AAGGAACUCCAGGUUGAACUGUCUGGCUGAAGCAAGGGAGGGUCUGGCACGCCCCACCAAUAGUAAAUCCCCCUGCCUAUAUUAUAAUGGAUCAUGCGAUAUCAGGAUGGGGAAUGUAUG | 0.512 |
| UUGGUGUCUAGAGCUCACCAGCUAGUGAUGGAGGGAUAUAACUGGUGCCAUGACCGGAAUGUAGUAACGAUUUUCAGUGCUCCAAACUAUUGUUAUCGUUGUGGUAACCAAGCUGCAAUC | 1.17 |
| GGCUGGUUAAAUGGCUAUAAUGAAACCACAGGGGAAAGGGGGGACUUUCCGGGAACUUACGUAGAAUAUAUUGGAAGGAAAAAAAUCUCGCCUCCCACACCAAAGCCCCGGCCACCUCGG | 1.15 |
| GCAAAGGAAAAAGAAGUAGAGAGUUUAAAACUUCCUUCAGAAAAGAACAGUAAUAAAGCUAAAACUGUUGAAGGGACAAAAGAAGAUUUCUCUUUGAUAGAUUCUGAUGUGGAUGGACUU | 0.282 |
| ACUCAGAGAUCCACCUCCCAAAGUGCUGGGAGUAAAGGUGUGGCCACCACACCUAACUUGAUGGAUAUAUAUUUUUUUUAAUAUGAAUCUUCCUGUUCGUCCAGGGAAGAAAGAUUUGUU | 1.37 |
| CCUGGCACCCGAGCCCCUGAUCCCACAGAUAGUCGAAGUCUUCAUAUUCAGCACCCAGGGUAUAGAUAGGGAGCCGGGACGCUCUCCUCAGGCAACACACAUUGCCCUUCUAGGUUUAGU | 1.62 |
| CCCUUUGACAUCGCUGAUACCUCCACGGCCUUUUUUUGUUAUUAUGUCCAUUACUGGGAAAAAGGAGGAAUCCAACAGGUCAAAGGCCCUUUCAGAAGCAACUCCAUUUCAUUGGAUAAC | 0.139 |
| UGCACAGAAGUUAUCCAGUCGGCUCAAGGCAUGGAGUAUCUUCUAGGUGUGGUGGAAGUGUACCGCGUAACCAAGCGUGUGGAGCUGGGGAUAAAAGCCACUGCUGUGUGUAGUGAGAAA | 0.291 |
| UACGGGAAGGAUUUCAAUGAUAUCCGCCAGGACUUUCUACCCUGGAAGUCACUUGCAAGCAUAGUCCAGUUUUAUUACAUGUGGAAAACCACAGACCGGUAUAUUCAGCAGAAAAGAUUG | 0.319 |
| AGACUUAAGUUUCCUUGUAUUGAAGAUAACCUAUGACUGUAUGUUUUGCAUUCCUAGAAGCAGGUUAACUGUGUUUUUAAAUUGUUAUAACCACACCUUUUUGAAAUCUGCCCUACAAAA | 0.238 |
| AAAGAACUGCUAUCUAUGGAGAAAGCAAUUCUGUACUCAUUGUUGGACCACGAGGAUCAGGAAAGACCACAUUAUUAAAUCAUGCUUUGAAAGAACUCAUGGAAAUAGAAGUGAGUGAAA | 0.406 |

Study 3
Target: Fragile X messenger ribonucleoprotein 1, C-terminal low-complexity region (Fmr1, Mus musculus, UniProt P35922)
Technique: RNA Bind-n-Seq
Form: RNA
Sample: in vitro
Tested at: 200 nM
Notes: whole 134-nt RNA, ends assumed
With: 150 mM LiCl
Relative to: input library
Direction: higher = stronger binding
Library: 7-deaza-guanosine replaces G
Constant ends, left off below: GGGAGUUCUACAGUCCGACGAUC … UGGAAUUCUCGGGUGUCAAGG
| Oligonucleotide | log2 enrichment |
| --- | --- |
| UCAAGUCCUGUGCUACACAUCGUAUGUACCGAAUCGGCCCGGCCCGGGGCCCGGGAAAGUAUUAUGUUACGCCGUUCGGAUCUGCACUUC | -1.36 |
| UGGCCCUGGUGGCAUGCGGGGAGGAAGUGGUGGCCUCAUGGAUCGUGGUGGUCCCGGUGGAAUGUUCAGAGGUGGCCGUGGUGGAGACAG | -0.127 |
| CCUGUGCUACACAUCGUAUGUACCGAAUCGGGUUUUUGGGAAAAAAAGGGUUUUUUUGGGAAAGUAUUAUGUUACGCCGUUCGGAUCUGC | -2.8 |
| CCUCAAGUCCUGUGCUACACAUCGUAUGUACCGAAUCGGAAAGGUUUGGAGGAAAGUAUUAUGUUACGCCGUUCGGAUCUGCACUUCCAG | -0.548 |
| UGGGAGGUGGAUUUUGUUUAUUUUUUUAGCUCAUUUCCAUGGGUGGGAAUUUUUUUUUAAUAUGUGUCAUGAAUAAAGUUGUUUUUGAAA | 0.392 |
| UGGCCCUGGUGGCAUGCGGGGAGGAAGAGGUGGCCUCAUUGAUCGUGGUGGUCCCGGUGGAAUGUUCAGAGGUGGCCGUGGUGGAGACAG | 0.13 |
| AAGUCCUGUGCUACACAUCGUAUGUACCGAAUCGGGUGGGUUUUUUUGGGAAAGGGAAAGUAUUAUGUUACGCCGUUCGGAUCUGCACUU | -0.488 |
| UCAAGUCCUGUGCUACACAUCGUAUGUACCGAAUCGGUGGAAAAAAAGGUUUGGAAAGUAUUAUGUUACGCCGUUCGGAUCUGCACUUCC | -1.82 |
| CAAGUCCUGUGCUACACAUCGUAUGUACCGAAUCGGGAGGGAAAAAGGGAAAGGGAAAGUAUUAUGUUACGCCGUUCGGAUCUGCACUUC | -0.226 |
| GCAGGAAGUAAAAACAAAUGGAAAUGCUUCAAAUAGUGGCAGGGGUGGGGGUUGCUAAGGAAAGGGUGGGAUGGGAGUGGGUAAAGAGUU | 1.28 |
| GGCUGCUGGAGUGCCGUGAGCAGGCCGCGGGAACGUCGCCGUCACCUUGUCUCGGGGCCUCGGCGCUGCUUCCCGCCAAAACACGUUUAC | -0.755 |

Other studies, line by line
| Molecule | target | test | test system | conditions | how to read | endpoint | value |
| --- | --- | --- | --- | --- | --- | --- | --- |
| PhoQ, residues 284 288 289 292 302 303 SVTLVV | PhoP, residues 12 14 15 18 19 LHSVQ (Escherichia coli, UniProt P23836) | Sort-seq, measured: YFP reporter | E. coli | PhoQ-PhoP variant library, with: 10 µM Mg2+ | relative to: high Mg2+ state, higher = stronger signaling | fold induction | 11 |

Repeated from above (study 2):
| Oligonucleotide | bound/input enrichment [ratio] |
| --- | --- |
| UACGGGAAGGAUUUCAAUGAUAUCCGCCAGGACUUUCUACCCUGGAAGUCACUUGCAAGCAUAGUCCAGUUUUAUUACAUGUGGAAAACCACAGACCGGUAUAUUCAGCAGAAAAGAUUG | 0.319 |
| AAGGAACUCCAGGUUGAACUGUCUGGCUGAAGCAAGGGAGGGUCUGGCACGCCCCACCAAUAGUAAAUCCCCCUGCCUAUAUUAUAAUGGAUCAUGCGAUAUCAGGAUGGGGAAUGUAUG | 0.512 |
| CCCUUUGACAUCGCUGAUACCUCCACGGCCUUUUUUUGUUAUUAUGUCCAUUACUGGGAAAAAGGAGGAAUCCAACAGGUCAAAGGCCCUUUCAGAAGCAACUCCAUUUCAUUGGAUAAC | 0.139 |
| UUGGUGUCUAGAGCUCACCAGCUAGUGAUGGAGGGAUAUAACUGGUGCCAUGACCGGAAUGUAGUAACGAUUUUCAGUGCUCCAAACUAUUGUUAUCGUUGUGGUAACCAAGCUGCAAUC | 1.17 |
| AAAGAACUGCUAUCUAUGGAGAAAGCAAUUCUGUACUCAUUGUUGGACCACGAGGAUCAGGAAAGACCACAUUAUUAAAUCAUGCUUUGAAAGAACUCAUGGAAAUAGAAGUGAGUGAAA | 0.406 |
